Measured values pooled from the literature.
Cell line: THP-1

For `CC/C(=C\c1ccc(OCC(=O)NC(C(=O)N2CCOCC2)c2ccccc2)cc1)[N+](=O)[O-]` (stereo not shown), the CC50 was 46.8 µM (cell growth or viability, MTT; 72 h, pH 7.4).
`CCOC(=O)c1cn(CC(c2c[nH]c3cc(Br)ccc23)c2c[nH]c3cc(Br)ccc23)c(C)c1C(=O)OC` has a CC50 of 124 µM (cell growth or viability, MTS; 72 h).
The IC90 of `CC(=O)[O-].F[P-](F)(F)(F)(F)F.[Ni+2].c1ccc(CN2CCN3CCN(CC2)CCN(Cc2ccccc2)CC3)cc1` is reported as > 20 µM (cytotoxicity).
`CCCCCc1cn(CCCCCCCCCCCOP(=O)([O-])OCC[N+](C)(C)C)nn1` — result for cytotoxicity: “not toxic” (up to 500 µM).
For `COc1ccc(Oc2ccc([C@@H](C)N(C)c3ncc4c(N)nc(N)nc4n3)cc2)cc1`, the CC50 was 36.6 µM (cell viability; 72 h, extrapolated, serum 10%).
Under uptake, `CC(C)C[C@H](NC(=O)[C@H](C)NC(=O)[C@H](CCCCN)NC(=O)[C@H](C)NC(=O)[C@H](CCCNC(=N)N)NC(=O)[C@H](C)NC(=O)[C@H](CCC(N)=O)NC(=O)[C@H](CCCNC(=N)N)NC(=O)[C@H](C)NC(=O)[C@H](C)NC(=O)[C@H](C)NC(=O)[C@H](CCCNC(=N)N)NC(=O)[C@H](C)NC(=O)[C@H](Cc1ccc(O)cc1)NC(=O)CCNC(=S)Nc1ccc2c(c1)C(=O)OC21c2ccc(O)cc2Oc2cc(O)ccc21)C(=O)N[C@@H](C)C(=O)N[C@@H](CCCNC(=N)N)C(=O)N[C@@H](CCC(N)=O)C(=O)N[C@@H](CC(C)C)C(=O)NCC(=O)N[C@H](C(=O)N[C@@H](C)C(=O)N[C@@H](C)C(N)=O)C(C)C` is recorded as “increased” (flow cytometry; concentration not given, 1 h, added: 50 µM EIPA).
`CCOC(=O)c1c(C#N)c(-c2cn(C)c3ccccc23)n(NC(=O)OC(C)(C)C)c1C` has a CC50 of 61.2 µM (cell growth or viability).
With `CC1OC(Oc2c(-c3ccc(O)cc3)oc3cc(O)cc(O)c3c2=O)C(OC(=O)C=Cc2ccc(O)cc2)C(O)C1OC(=O)C=Cc1ccc(O)cc1` (stereo not shown) the IC50 was > 10 µM (cell growth or viability; 48 h).
`[Cl-].[Cl-].[Mn+2].c1ccc(CN2CCNCCN(Cc3ccccc3)CCNCC2)cc1` has an IC90 of > 20 µM (cytotoxicity).
`COc1ccc(NC(=O)N2CCCN3CCC(c4ccc(C#CC5CCCCC5)cc4)C3C2)cc1` (stereo not shown) gave a CC50 of 7.94 µM (cell growth or viability, ATP luminescence; 72 h).
For `CC/C(=C\c1ccc(OCC(=O)NC(C(=O)N2CCSCC2)c2ccccc2)cc1)[N+](=O)[O-]` (stereo not shown), the CC50 was 2.98 µM (cell growth or viability, MTT; 72 h, pH 7.4).
`CCOC(=O)c1c(C#N)c(-c2c[nH]c3cccc(OCc4ccccc4)c23)n(NC(=O)OC(C)(C)C)c1C` has a CC50 of 43.1 µM (cell growth or viability).
With `CC(=O)[O-].CN(C)C=O.F[P-](F)(F)(F)(F)F.[Co+2].c1ccc(CN2CCN3CCCN(CC2)CCN(Cc2ccccc2)CC3)cc1` the IC90 was > 10 µM (cytotoxicity).
The CC50 of `COc1ccc(NC(=O)N2CCCN3CCC(c4ccc(C#Cc5ccccc5)cc4)C3C2)cc1` (stereo not shown) is reported as 7.94 µM (cell growth or viability, ATP luminescence; 72 h).
`[Cl-].[Cl-].[Mn+2].c1ccc(CN2CCCNCCN(Cc3ccccc3)CCCNCC2)cc1` gave an IC90 of > 19 µM (cytotoxicity).
`COc1ccc(NC(=O)N2CCCN3CCC(c4ccc(C#CC5CCCC5)cc4)C3C2)cc1` (stereo not shown) gave a CC50 of 8.02 µM (cell growth or viability, ATP luminescence; 72 h).

Some of these lines once more:
Under uptake, `CC(C)C[C@H](NC(=O)[C@H](C)NC(=O)[C@H](CCCCN)NC(=O)[C@H](C)NC(=O)[C@H](CCCNC(=N)N)NC(=O)[C@H](C)NC(=O)[C@H](CCC(N)=O)NC(=O)[C@H](CCCNC(=N)N)NC(=O)[C@H](C)NC(=O)[C@H](C)NC(=O)[C@H](C)NC(=O)[C@H](CCCNC(=N)N)NC(=O)[C@H](C)NC(=O)[C@H](Cc1ccc(O)cc1)NC(=O)CCNC(=S)Nc1ccc2c(c1)C(=O)OC21c2ccc(O)cc2Oc2cc(O)ccc21)C(=O)N[C@@H](C)C(=O)N[C@@H](CCCNC(=N)N)C(=O)N[C@@H](CCC(N)=O)C(=O)N[C@@H](CC(C)C)C(=O)NCC(=O)N[C@H](C(=O)N[C@@H](C)C(=O)N[C@@H](C)C(N)=O)C(C)C` is recorded as “increased” (flow cytometry; concentration not given, 1 h, added: 50 µM EIPA).
`CCOC(=O)c1c(C#N)c(-c2cn(C)c3ccccc23)n(NC(=O)OC(C)(C)C)c1C` has a CC50 of 61.2 µM (cell growth or viability).
